# Published values pooled from the literature.
# ± gives the spread as reported.
# T1: RAMP2/CALCR extracellular domain fusion 43-143 (Homo sapiens); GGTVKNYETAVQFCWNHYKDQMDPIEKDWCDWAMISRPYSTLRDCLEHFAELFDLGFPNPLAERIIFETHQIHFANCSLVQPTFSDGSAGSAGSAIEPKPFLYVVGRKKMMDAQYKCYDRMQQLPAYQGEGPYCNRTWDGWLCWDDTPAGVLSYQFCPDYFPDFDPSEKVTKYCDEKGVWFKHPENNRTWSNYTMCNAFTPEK
# B1: FIBH residues 1259-1853 (Bombyx mori); N-terminal Alexa Fluor 488; chain GAGAGSGAGAGSGAGAGSGAGAGSGAGYGAGVGAGYGAGYGAGAGAGYGAGAGSGAGSGAGAGSGAGAGSGAGAGSGAGAGSGAGAGSGAGAGSGAGAGSGAGAGSGAGAGYGAGYGAGAGAGYGAGAGSGAGSGAGAGSGAGAGSGAGAGSGAGAGSGAGAGSGAGAGSGAGAGSGAGAGYGAGVGAGYGAGYGAGAGAGYGAGAGSGAGSGAGAGSGAGAGSGAGAGSGAGVGSGAGAGSGAGAGSGAGAGSGAGAGYGAGYGAGAGAGYGAGAGSGAGSGAGAGSGAGAGSGAGAGSGAGAGSGAGAGSGAGAGSGAGAGSGAGVGYGAGVGAGYGAGYGAGAGAGYGAGAGSGAAS
# B2: Pigr 19-135 (Mus musculus, UniProt O70570); chain KSPIFGPQEVSSIEGDSVSITCYYPDTSVNRHTRKYWCRQGASGMCTTLISSNGYLSKEYSGRANLINFPENNTFVINIEQLTQDDTGSYKCGLGTSNRGLSFDVSLEVSQVPELPS
# B3: USP7 207-560 (Homo sapiens, UniProt Q93009); sequence looked up; chain SKKHTGYVGLKNQGATCYMNSLLQTLFFTNQLRKAVYMMPTEGDDSSKSVPLALQRVFYELQHSDKPVGTKKLTKSFGWETLDSFMQHDVQELCRVLLDNVENKMKGTCVEGTIPKLFRGKMVSYIQCKEVDYRSDRREDYYDIQLSIKGKKNIFESFVDYVAVEQLDGDNKYDAGEHGLQEAEKGVKFLTLPPVLHLQLMRFMYDPQTDQNIKINDRFEFPEQLPLDEFLQKTDPKDPANYILHAVLVHSGDNHGGHYVVYLNPKGDGKWCKFDDDVVSRCTKEEAIEHNYGGHDDDLSVRHCTNAYMLVYIRESKLSEVLQAVTDHDIPQQLVERLQEEKRIEAQKRKERQE
# B4: EFR3B 716-787 (Homo sapiens, UniProt Q9Y2G0); chain VPAEEITYETLKKAIVDSVAVEEQERERRRQVVEKFQKAPFEEIAAHCGARASLLQSKLNQIFEITIRPPPS
# B5: Flrt2 35-362 (Mus musculus, UniProt Q8BLU0); chain ACPSVCRCDRNFVYCNERSLTSVPLGIPEGVTVLYLHNNQINNAGFPAELHNVQSVHTVYLYGNQLDEFPMNLPKNVRVLHLQENNIQTISRAALAQLLKLEELHLDDNSISTVGVEDGAFREAISLKLLFLSKNHLSSVPVGLPVDLQELRVDENRIAVISDMAFQNLTSLERLIVDGNLLTNKGIAEGTFSHLTKLKEFSIVRNSLSHPPPDLPGTHLIRLYLQDNQINHIPLTAFANLRKLERLDISNNQLRMLTQGVFDHLSNLKQLTARNNPWFCDCSIKWVTEWLKYIPSSLNVRGFMCQGPEQVRGMAVRELNMNLLSCPT
# B6: RSPO4 32-137 Q65R (Homo sapiens, UniProt Q2I0M5); chain GGNCTGCIICSEENGCSTCQQRLFLFIRREGIRRYGKCLHDCPPGYFGIRGQEVNRCKKCGATCESCFSQDFCIRCKRQFYLYKGKCLPTCPPGTLAHQNTRECQGGGGGSGGGGSGGGGS
# B7: SRS2 1107-1174 D1151A (Saccharomyces cerevisiae, UniProt P12954); N-terminal cysteine BODIPY-FL; chain CHNPDDTTVDNRPIISNAKFLADAAMKKTQKFSKKVKNEPASSQMAIFSQLSRAKKKSKLNNGEIIVID
# Sequence of UniProt P45481 (whole entry, looked up): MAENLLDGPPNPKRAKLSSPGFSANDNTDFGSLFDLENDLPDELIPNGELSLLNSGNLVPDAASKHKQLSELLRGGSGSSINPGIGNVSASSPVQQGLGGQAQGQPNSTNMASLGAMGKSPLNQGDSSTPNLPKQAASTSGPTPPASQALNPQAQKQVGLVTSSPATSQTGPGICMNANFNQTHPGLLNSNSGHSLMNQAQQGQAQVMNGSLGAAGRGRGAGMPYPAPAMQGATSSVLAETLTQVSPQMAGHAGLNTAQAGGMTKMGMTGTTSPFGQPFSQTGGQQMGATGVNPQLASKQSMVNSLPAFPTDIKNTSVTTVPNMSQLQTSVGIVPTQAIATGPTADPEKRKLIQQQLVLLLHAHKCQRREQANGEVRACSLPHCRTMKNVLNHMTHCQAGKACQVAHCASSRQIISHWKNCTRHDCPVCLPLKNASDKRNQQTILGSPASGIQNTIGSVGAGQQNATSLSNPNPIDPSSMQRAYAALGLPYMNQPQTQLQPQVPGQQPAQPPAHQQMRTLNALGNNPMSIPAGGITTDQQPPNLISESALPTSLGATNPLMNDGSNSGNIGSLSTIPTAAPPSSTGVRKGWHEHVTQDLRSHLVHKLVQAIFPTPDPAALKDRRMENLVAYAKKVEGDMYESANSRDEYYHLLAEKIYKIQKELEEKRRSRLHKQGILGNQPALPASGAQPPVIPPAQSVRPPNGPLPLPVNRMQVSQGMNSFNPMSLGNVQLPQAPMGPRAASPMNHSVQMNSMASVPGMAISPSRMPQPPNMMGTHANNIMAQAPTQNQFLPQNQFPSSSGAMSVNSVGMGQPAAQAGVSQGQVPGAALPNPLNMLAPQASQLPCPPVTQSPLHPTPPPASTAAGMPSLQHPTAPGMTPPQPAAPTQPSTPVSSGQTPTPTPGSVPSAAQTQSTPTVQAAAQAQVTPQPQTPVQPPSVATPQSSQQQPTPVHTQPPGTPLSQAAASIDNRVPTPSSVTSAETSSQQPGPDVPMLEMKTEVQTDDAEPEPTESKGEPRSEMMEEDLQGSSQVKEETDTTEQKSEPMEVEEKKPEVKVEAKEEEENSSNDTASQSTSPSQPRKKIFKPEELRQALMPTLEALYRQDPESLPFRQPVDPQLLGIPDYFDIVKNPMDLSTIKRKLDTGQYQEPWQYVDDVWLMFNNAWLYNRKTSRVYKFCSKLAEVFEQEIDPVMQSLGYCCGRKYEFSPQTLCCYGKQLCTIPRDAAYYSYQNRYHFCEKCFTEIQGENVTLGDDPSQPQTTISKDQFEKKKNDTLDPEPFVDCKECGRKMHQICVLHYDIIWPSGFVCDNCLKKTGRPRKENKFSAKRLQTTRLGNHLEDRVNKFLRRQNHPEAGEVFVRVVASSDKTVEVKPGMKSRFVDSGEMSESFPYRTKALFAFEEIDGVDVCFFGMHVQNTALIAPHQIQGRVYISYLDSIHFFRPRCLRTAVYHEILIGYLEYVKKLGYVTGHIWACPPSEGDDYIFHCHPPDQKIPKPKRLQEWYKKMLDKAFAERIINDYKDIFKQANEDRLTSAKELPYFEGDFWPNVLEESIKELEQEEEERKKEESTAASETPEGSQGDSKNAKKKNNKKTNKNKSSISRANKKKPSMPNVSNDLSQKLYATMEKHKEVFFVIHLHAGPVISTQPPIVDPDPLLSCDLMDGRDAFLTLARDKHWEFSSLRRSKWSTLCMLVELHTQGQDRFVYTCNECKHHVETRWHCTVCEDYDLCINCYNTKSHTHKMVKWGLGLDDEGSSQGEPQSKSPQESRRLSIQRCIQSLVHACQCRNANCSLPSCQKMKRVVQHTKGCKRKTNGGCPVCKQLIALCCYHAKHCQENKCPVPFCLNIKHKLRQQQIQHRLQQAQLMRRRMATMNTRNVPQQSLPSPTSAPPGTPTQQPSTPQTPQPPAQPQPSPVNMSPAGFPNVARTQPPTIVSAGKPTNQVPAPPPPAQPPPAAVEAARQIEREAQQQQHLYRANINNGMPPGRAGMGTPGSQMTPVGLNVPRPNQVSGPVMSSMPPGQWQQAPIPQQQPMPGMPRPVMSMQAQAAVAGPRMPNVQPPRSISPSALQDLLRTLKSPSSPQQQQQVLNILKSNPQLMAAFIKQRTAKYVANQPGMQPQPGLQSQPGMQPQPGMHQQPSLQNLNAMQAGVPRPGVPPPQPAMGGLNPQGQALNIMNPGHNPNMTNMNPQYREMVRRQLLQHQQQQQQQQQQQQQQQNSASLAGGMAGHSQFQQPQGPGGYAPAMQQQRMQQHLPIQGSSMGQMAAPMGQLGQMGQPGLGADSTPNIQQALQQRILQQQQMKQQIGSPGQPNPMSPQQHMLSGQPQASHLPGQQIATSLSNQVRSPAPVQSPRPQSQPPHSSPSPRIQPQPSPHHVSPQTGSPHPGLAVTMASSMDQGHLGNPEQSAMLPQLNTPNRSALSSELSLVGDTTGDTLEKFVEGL
# Sequence of UniProt Q5BJF2 (whole entry, looked up): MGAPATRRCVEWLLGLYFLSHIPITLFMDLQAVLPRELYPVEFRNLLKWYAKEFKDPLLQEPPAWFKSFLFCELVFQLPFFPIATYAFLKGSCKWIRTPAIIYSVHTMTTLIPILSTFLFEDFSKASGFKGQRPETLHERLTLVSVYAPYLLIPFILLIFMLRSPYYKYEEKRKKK
# Sequence of UniProt Q9NWS0 (whole entry, looked up): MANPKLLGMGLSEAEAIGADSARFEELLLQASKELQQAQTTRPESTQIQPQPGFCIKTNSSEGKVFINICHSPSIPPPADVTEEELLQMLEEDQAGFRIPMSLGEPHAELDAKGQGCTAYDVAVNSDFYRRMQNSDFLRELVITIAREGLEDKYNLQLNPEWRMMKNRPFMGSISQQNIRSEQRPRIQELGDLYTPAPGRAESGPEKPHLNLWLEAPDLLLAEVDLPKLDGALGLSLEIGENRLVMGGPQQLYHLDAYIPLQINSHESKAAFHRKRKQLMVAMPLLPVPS
Substance,partner,assay,test system,conditions,Kd [µM]
F2 thrombin S195A,GP1BA 284-300 (UniProt P07359),BLI,,,1.03 ± 0.05
B1 (FIBH residues 1259-1853),"collagen I (Homo sapiens, UniProt P02452)",FCS,,,0.0109 ± 0.00016
STIP1 fragment (Homo sapiens) (sequence not shown),"SNCA (Homo sapiens, UniProt P37840)",NMR titration,,,169 ± 67
"KLLMIIHDRREFAKFEKEKMNAKWDTQENPIYKSPINNFKNPNYGRKAGL (ITGB1 752-801 (Homo sapiens, UniProt P05556-5); sequence looked up)","Tln2 312-408 Y376A (Mus musculus, UniProt Q71LX4)",NMR titration,,,698
B2 (Pigr 19-135),Igha/Jchain CH2-CH3 with J chain Y135A/P136A/D137A (Mus musculus),SPR,,,> 2
B3 (USP7 207-560),"ubiquitin, 15N-labelled (UniProt P0CG48)",NMR titration,,,204 ± 22
"H2AX/H2B/H3/H4 nucleosome core particle, pS139 (Homo sapiens)","MCPH1 BRCT 639-835 (Homo sapiens, UniProt Q8NEM0)",MST,,,0.03 ± 0.0067
"SDLACRLLGQSMDESGLPQLTSYDCEVNAPIQGSGSGSGSGSRNLLQGEELLRALDQVN (HIF-1α CTAD 776-826 (GS)4 insertion (Homo sapiens, UniProt Q16665); sequence looked up)","Crebbp 340-439 (Mus musculus, UniProt P45481)",fluorescence polarisation,,,0.16
B4 (EFR3B 716-787),TTC7B/FAM126B FAM126B 1-308,BLI,,,0.000345
EGLN1 fragment,"HIF1A NODD peptide 394-411, C-terminal amide (Homo sapiens)",BLI,,,3.2 ± 0.3
Homer EVH1 domain (Capsaspora owczarzaki),DBN1 peptide (Homo sapiens),BLI,,,> 150
SHREFPFYGDYGS (HTN1 residues 20-32),"TMEM97 (Homo sapiens, UniProt Q5BJF2)",SPR,peptide,,> 50
B5 (Flrt2 35-362),"UNC5B 27-375 (Homo sapiens, UniProt Q8IZJ1)",SPR,,,21
RGSVITSA (Zbtb16 residues 285-292 (Mus musculus)),IRF2BP2 fragment (Homo sapiens),ITC,peptide,,12.4
"GLP-1/MC4 receptor agonist chimeric peptide, D-Ser position 2","GLP1R (Homo sapiens, UniProt P43220)",competitive binding,CHO-K1,with: Ex-4 reference,0.0099
GCVRLHESCLGQQVPCCDPAATCYCEGRGDRDMKCYCR (designed binder),ITGA2B/ITGB3 K562 cells,flow cytometry,"designed binder, U87MG",,> 0.1
PARRSEELVAEAHNLCTLLENAIQDTVREQDQSFTALDWSWLQTE (IKBKB 701-745 K703R/K704R (UniProt O14920); N-terminal FITC; sequence looked up),IKBKG residues 44-113 R75V/E78R,fluorescence polarisation,peptide,,6.52
SQELHKLQTYPRTNTGSGTP (salmon calcitonin 13-32 (Salmo salar); N-terminal FITC-Ahx/C-terminal amide),"T1, RAMP2/CALCR extracellular domain fusion 43-143 (Homo sapiens)",fluorescence polarization,peptide,,4.4
Cacna1c distal C-terminal regulatory (Rattus norvegicus),"CACNA1C IQ motif 1644-1668, fluorescein label (UniProt P15381)",fluorescence polarisation,,,14 ± 5
B6 (RSPO4 32-137 Q65R),"LGR5 (Homo sapiens, UniProt O75473)",whole-cell binding saturation,"Fc fusion, HEK293T",,0.0007
B7 (SRS2 1107-1174 D1151A),"POL30 1-258 K127G (Saccharomyces cerevisiae, UniProt P15873)",fluorescence polarisation,,apparent,1.67
YAGSDSDLDSDDEFVPY (TELO2 483-497 (Homo sapiens); pS487),"PIH1D1 1-180 (Homo sapiens, UniProt Q9NWS0)",ITC,peptide,,15 ± 1.5
"PUX2 (Arabidopsis thaliana, UniProt Q9ZU93)","UBQ10 mature (Arabidopsis thaliana, UniProt Q8H159)",ITC,,25 °C,79.5 ± 32.1

# For quick reference, copied from above:
Substance,partner,assay,test system,conditions,Kd [µM]
F2 thrombin S195A,GP1BA 284-300 (UniProt P07359),BLI,,,1.03 ± 0.05
B1 (FIBH residues 1259-1853),"collagen I (Homo sapiens, UniProt P02452)",FCS,,,0.0109 ± 0.00016
STIP1 fragment (Homo sapiens) (sequence not shown),"SNCA (Homo sapiens, UniProt P37840)",NMR titration,,,169 ± 67
